Measurements of several laboratories.
Protocols differ between the studies behind these lines. “And” joins repeats or separate records; there may be more than shown. Numbers after ± are the reported error. In brackets after ≈: the same amount, converted by molar mass.

Structure (SMILES) | cell line | test | test system | setting | how to read | measurement | result
CCCCCc1ccc(Cc2cc(/C=C/C(=O)OC)cc3cccnc23)cc1 | Huh-7 | cell growth or viability, MTT |  |  |  | CC50 | > 400 µM
Cc1cccnc1-c1csc(C(=O)Nc2cc(Cl)cc(NS(C)(=O)=O)c2)c1 | WI-38 | cell growth or viability, ATP luminescence |  | 10 days |  | CC50 | > 10 µM
COc1ccc2ncc(F)c(C[C@H](O)[C@H]3OC[C@H](NCc4ccc(C)cc4)CO3)c2n1 | THP-1 | cytotoxicity |  |  |  | IC50 | 39.4 µg/mL (≈ 92.2 µM)
CC(=O)OC[C@H]1O[C@@H]([Se]C(=O)c2ccc([N+](=O)[O-])cc2)[C@H](OC(C)=O)[C@@H](OC(C)=O)[C@@H]1OC(C)=O | THP-1 macrophages (PMA-differentiated) | WST-1 |  | 25 µM, 24 h |  | viability | 32 ± 6.2%
COC1OC(C)C(OC2OC(C)C(OS(=O)(=O)O)C(OC3OC(C)C(OC4OC(C)C(OS(=O)(=O)O)C(OC5OC(C)C(OC6OC(C)C(OS(=O)(=O)O)C(OC7OC(C)C(OS(=O)(=O)O)C(OS(=O)(=O)O)C7OS(=O)(=O)O)C6OS(=O)(=O)O)C(OS(=O)(=O)O)C5OS(=O)(=O)O)C4OS(=O)(=O)O)C(OS(=O)(=O)O)C3OS(=O)(=O)O)C2OS(=O)(=O)O)C(OS(=O)(=O)O)C1OS(=O)(=O)O (stereo not shown) | NIH 3T3 | CCK-8 |  | concentration not given, 24 h, low concentration | reference: untreated cells | viability | 102% and 101% and 98.7%
CC(=O)OC[C@H]1O[C@@H]([Se]SC[C@H]2O[C@@H]3OC(C)(C)O[C@@H]3[C@H]3OC(C)(C)O[C@H]32)[C@H](OC(C)=O)[C@@H](OC(C)=O)[C@@H]1OC(C)=O | THP-1 | cell growth or viability, WST-1 |  | 24 h |  | CC50 | ~10 µM
c1cc2nc(c1)-c1cccc(n1)CCCc1ccc(cc1)OCCCCCCOc1ccc(cc1)CCC2 | Caco-2 | cell growth or viability, MTT |  | 25 µM, 48 h |  | viability | 87.1%
O=C1CCC(N2Cc3cc(C(=O)O)c(F)cc3C2=O)C(=O)N1 (stereo not shown) | Hep3B | CellTiter-Glo |  | concentration not given, 72 h |  | minimum viability | 43.1 ± 3.28%
Cc1cc(C(=O)Nc2nc3cccc(C)c3n2[C@H]2CCCCN(C(=O)/C=C/CN(C)C)C2)ccn1 | NIH 3T3 | cytotoxicity |  | 4 days, mean value |  | CC50 | 9.66 µM
N#Cc1cccc(-c2ccc(=O)n(Cc3cccc(-c4ncc(OCC5CCN(CC(=O)N6CCN(c7ccc8c(c7)C(=O)N(C7CCC(=O)NC7=O)C8=O)CC6)CC5)cn4)c3)n2)c1 (stereo not shown) | Caco-2 | transwell monolayer |  | 2 µM, 120 min, pH 7.4, 0.1% DMSO, together with: tariquidar 5 µM |  | Papp B-A | 0.04 ± 0.01 ×10⁻⁶ cm/s
COc1ccc2nccc(CC[C@H]3OC[C@H](NC(=O)c4ccc5c(c4)NC(=O)CO5)CO3)c2c1 | THP-1 | cytotoxicity |  |  |  | IC50 | > 100 µg/mL
Cc1cc(C)nc(NC(=S)N2CCN(Cc3ccc(C(F)(F)F)cc3)CC2)c1 | MDCK-MDR1 |  |  |  |  | Papp A-B | 4.1 ± 0.7 ×10⁻⁶ cm/s
COc1ccc2nccc(CC[C@H]3OC[C@H](NC(=O)c4ccc(Cl)cc4)CO3)c2c1 | THP-1 | cytotoxicity |  |  |  | IC50 | 15.6 µg/mL (≈ 36.5 µM)
COC1OC(C)C(OS(=O)(=O)O)C(OC2OC(C)C(OS(=O)(=O)O)C(OC3OC(C)C(OS(=O)(=O)O)C(OC4OC(C)C(OS(=O)(=O)O)C(OC5OC(C)C(OS(=O)(=O)O)C(OC6OC(C)C(OS(=O)(=O)O)C(OC7OC(C)C(OS(=O)(=O)O)C(OC8OC(C)C(OS(=O)(=O)O)C(OC9OC(C)C(OS(=O)(=O)O)C(OC%10OC(C)C(OS(=O)(=O)O)C(OS(=O)(=O)O)C%10OS(=O)(=O)O)C9OS(=O)(=O)O)C8OS(=O)(=O)O)C7OS(=O)(=O)O)C6OS(=O)(=O)O)C5OS(=O)(=O)O)C4OS(=O)(=O)O)C3OS(=O)(=O)O)C2OS(=O)(=O)O)C1OS(=O)(=O)O (stereo not shown) | RAW264.7 | CCK-8 |  | concentration not given, 24 h, medium concentration | reference: untreated cells | viability | 120% and 106% and 118%
CCCc1c(O)c(O)cc(C(=O)O)c1COC1OC(CO)C(O)C(O)C1O (stereo not shown) | HeLa, SW480 and HCT-116 | CCK-8 |  | 80 µM, 24 h |  | cytotoxicity | not toxic
COc1ccc2ncc(F)c(C[C@H](O)[C@H]3OC[C@H](NCc4ccc(Cl)c(Cl)c4)CO3)c2c1 | THP-1 | cytotoxicity |  |  |  | IC50 | 17.2 µg/mL (≈ 35.7 µM)
Cc1cc(C(c2ccc(Cl)cc2)c2ccc(Cl)cc2)c2nccc(C)c2c1 | Huh-7 | cell growth or viability, MTT |  |  |  | CC50 | > 400 µM
COC1OC(C)C(OS(=O)(=O)O)C(OC2OC(C)C(OS(=O)(=O)O)C(OC3OC(C)C(OS(=O)(=O)O)C(OC4OC(C)C(OS(=O)(=O)O)C(OC5OC(C)C(OS(=O)(=O)O)C(OC6OC(C)C(OS(=O)(=O)O)C(OC7OC(C)C(OS(=O)(=O)O)C(OC8OC(C)C(OS(=O)(=O)O)C(OS(=O)(=O)O)C8OS(=O)(=O)O)C7OS(=O)(=O)O)C6OS(=O)(=O)O)C5OS(=O)(=O)O)C4OS(=O)(=O)O)C3OS(=O)(=O)O)C2OS(=O)(=O)O)C1OS(=O)(=O)O (stereo not shown) | RAW264.7 | CCK-8 |  | concentration not given, 24 h, low concentration | reference: untreated cells | viability | 96.2% and 107% and 125%
Cc1ncsc1-c1ccc(CNC(=O)[C@@H]2C[C@@H](O)CN2C(=O)[C@@H](NC(=O)CN2CCN(C3CN(CCNC(=O)C[C@@H]4N=C(c5ccc(Cl)cc5)c5c(sc(C)c5C)-n5c(C)nnc54)C3)CC2)C(C)(C)C)cc1 | Sf9 |  | culture medium |  |  | kinetic solubility | 203 µM (≈ 211 µg/mL)
S=c1n(-c2ccccc2)c2c3ccccc3nc3[n+]2[n]1[Ir-3]12([S]3)([c]3ccc4ccccc4c3-c3sc4ccccc4[n+]31)[c]1ccc3ccccc3c1-c1sc3ccccc3[n+]12 | A549 | ICP-MS |  | 10 µM, 24 h, 37 °C |  | cellular iridium uptake | 0.44 ± 0.08 fmol/cell
CCc1c(-c2ccc3[nH]ncc3c2)cnc(N)c1-c1ccc(O)cc1 | CHP-212 | SRB |  | 0.3906 µM |  | viability | 102% and 104%
CN1CCCNC(=O)c2cccc(c2)C(=O)NCCCN(C)CCCNc2cccc3c2C(=O)c2cccc(c2C3=O)NCCC1 | NHEK | CCK-8 |  | 1.5 µM, 48 h | reference: untreated | viability | 62.2%

Repeated from above:
Structure (SMILES) | cell line | test | test system | setting | how to read | measurement | result
COc1ccc2ncc(F)c(C[C@H](O)[C@H]3OC[C@H](NCc4ccc(Cl)c(Cl)c4)CO3)c2c1 | THP-1 | cytotoxicity |  |  |  | IC50 | 17.2 µg/mL (≈ 35.7 µM)
Cc1cc(C(c2ccc(Cl)cc2)c2ccc(Cl)cc2)c2nccc(C)c2c1 | Huh-7 | cell growth or viability, MTT |  |  |  | CC50 | > 400 µM
COC1OC(C)C(OS(=O)(=O)O)C(OC2OC(C)C(OS(=O)(=O)O)C(OC3OC(C)C(OS(=O)(=O)O)C(OC4OC(C)C(OS(=O)(=O)O)C(OC5OC(C)C(OS(=O)(=O)O)C(OC6OC(C)C(OS(=O)(=O)O)C(OC7OC(C)C(OS(=O)(=O)O)C(OC8OC(C)C(OS(=O)(=O)O)C(OS(=O)(=O)O)C8OS(=O)(=O)O)C7OS(=O)(=O)O)C6OS(=O)(=O)O)C5OS(=O)(=O)O)C4OS(=O)(=O)O)C3OS(=O)(=O)O)C2OS(=O)(=O)O)C1OS(=O)(=O)O (stereo not shown) | RAW264.7 | CCK-8 |  | concentration not given, 24 h, low concentration | reference: untreated cells | viability | 96.2% and 107% and 125%
